Assay results of several laboratories.
Protocols differ between the studies behind these lines.
Organism: Acinetobacter baumannii

C[C@@H](O)[C@H]1C(=O)N2C(C(=O)O)=C(S[C@@H]3CN[C@H](C(=O)N(C)C)C3)[C@H](C)[C@H]12 has an MIC of > 8 µg/mL (1189854, multidrug-resistant).
CC[C@H](C)[C@H](NC(=O)[C@H](CC(C)C)NC(=O)[C@H](CCCNC(=N)N)NC(=O)[C@@H](N)CCCNC(=N)N)C(=O)N[C@@H](CCCNC(=N)N)C(=O)N[C@H](C(=O)N[C@@H](CC(C)C)C(=O)N[C@H](C(=O)NCC(=O)N1CCC[C@H]1C(=O)N[C@H](C(=O)N[C@H](C(=O)N[C@@H](Cc1ccc(O)cc1)C(=O)N[C@@H](CC(C)C)C(=O)N[C@@H](Cc1ccc(O)cc1)C(=O)N[C@@H](Cc1ccccc1)C(=O)N[C@@H](CCCCN)C(=O)N[C@@H](CC(C)C)C(=O)N[C@@H](CCC(N)=O)C(=O)N[C@@H](CC(C)C)C(=O)N[C@@H](CC(C)C)C(=O)N[C@@H](CCCCN)C(=O)N[C@@H](CCCCN)C(N)=O)[C@@H](C)CC)[C@@H](C)CC)[C@@H](C)O)[C@@H](C)O has an MIC of 32 µM (KCCM 40203, Mueller-Hinton broth; 24 h).
With CC[C@H](C)[C@H](NC(=O)[C@@H](NC(=O)[C@H](Cc1ccccc1)NC(=O)CNC(=O)[C@H](CCC(N)=O)NC(=O)[C@H](CCCCN)NC(=O)[C@H](C)N)C(C)C)C(=O)N[C@@H](Cc1ccc(O)cc1)C(=O)N[C@@H](CCCNC(=N)N)C(=O)N[C@H](C(=O)N[C@@H](CCCNC(=N)N)C(=O)N[C@H](C(=O)N[C@@H](CCCNC(=N)N)C(=O)N[C@@H](CCCNC(=N)N)C(=O)NCC(=O)N[C@@H](CC(N)=O)C(=O)N[C@@H](CCCNC(=N)N)C(=O)N[C@@H](CCCCN)C(N)=O)C(C)C)C(C)C the MIC was 6.3 µM (broth dilution; ATCC 19606).
The MIC of CC[C@H](C)[C@H](NC(=O)CNC(=O)[C@H](CC(=O)O)NC(=O)[C@H](CCCNC(=N)N)NC(=O)[C@@H](NC(=O)[C@H](CC(N)=O)NC(=O)[C@H](CCCNC(=N)N)NC(=O)CNC(=O)[C@@H](NC(=O)[C@H](CCCCN)NC(=O)[C@H](CCC(=O)O)NC(=O)[C@@H](NC(=O)[C@H](CCC(=O)O)NC(=O)[C@H](CCCCN)NC(=O)[C@H](Cc1ccccc1)NC(=O)[C@@H](NC(=O)[C@H](CCCCN)NC(=O)[C@H](Cc1c[nH]c2ccccc12)NC(=O)[C@@H](N)CCCNC(=N)N)[C@@H](C)CC)[C@@H](C)CC)C(C)C)C(C)C)C(=O)N[C@H](C(=O)N[C@@H](CCCCN)C(=O)N[C@@H](C)C(=O)NCC(=O)N1CCC[C@H]1C(=O)N[C@@H](C)C(=O)N[C@H](C(=O)N[C@@H](C)C(=O)N[C@H](C(=O)N[C@H](C(=O)NCC(=O)N[C@@H](CCC(N)=O)C(=O)N[C@@H](C)C(=O)N[C@@H](C)C(=O)N[C@H](C(=O)N[C@H](C(=O)N[C@H](C(=O)N[C@@H](CCCCN)C(N)=O)C(C)C)C(C)C)[C@@H](C)O)C(C)C)C(C)C)C(C)C)[C@@H](C)CC is reported as 8 µM (KCCM 40203, Mueller-Hinton broth; 16 h, 37 °C; growth inhibition over 99%).
The MIC of CC[C@H](C)[C@H](NC(=O)[C@H](CC(C)C)NC(=O)[C@H](CCCNC(=N)N)NC(=O)[C@@H](N)CCCNC(=N)N)C(=O)N[C@@H](CCCNC(=N)N)C(=O)N[C@H](C(=O)N[C@@H](CC(=O)O)C(=O)N[C@H](C(=O)NCC(=O)N1CCC[C@H]1C(=O)N[C@H](C(=O)N[C@H](C(=O)N[C@@H](Cc1ccc(O)cc1)C(=O)N[C@@H](CC(=O)O)C(=O)N[C@@H](Cc1ccc(O)cc1)C(=O)N[C@@H](Cc1ccccc1)C(=O)N[C@@H](CCCCN)C(=O)N[C@@H](CC(=O)O)C(=O)N[C@@H](CCC(N)=O)C(=O)N[C@@H](CC(C)C)C(=O)N[C@@H](CC(C)C)C(=O)N[C@@H](CCCCN)C(=O)N[C@@H](CCCCN)C(N)=O)[C@@H](C)CC)[C@@H](C)CC)[C@@H](C)O)[C@@H](C)O is reported as 128 µM (KCCM 40203, Mueller-Hinton broth; 24 h).
With O=[N+]([O-])c1ccc(O)c2ncccc12 the MIC was 8 µg/mL (broth microdilution; carbapenem-resistant clinical isolate).
With CC[C@H](C)[C@H](NC(=O)CNC(=O)[C@H](CC(=O)O)NC(=O)[C@H](CCCNC(=N)N)NC(=O)[C@@H](NC(=O)[C@H](CC(N)=O)NC(=O)[C@H](CCCNC(=N)N)NC(=O)CNC(=O)[C@@H](NC(=O)[C@H](CCCCN)NC(=O)[C@H](CCC(=O)O)NC(=O)[C@@H](NC(=O)[C@H](CCCCN)NC(=O)[C@H](CCC(=O)O)NC(=O)[C@H](Cc1ccccc1)NC(=O)[C@@H](NC(=O)[C@H](CCCCN)NC(=O)[C@H](Cc1c[nH]c2ccccc12)NC(=O)[C@@H](N)CCCNC(=N)N)[C@@H](C)CC)[C@@H](C)CC)C(C)C)C(C)C)C(=O)N[C@H](C(=O)N[C@@H](CCCCN)C(=O)N[C@@H](C)C(=O)NCC(=O)N1CCC[C@H]1C(=O)N[C@@H](C)C(=O)N[C@H](C(=O)N[C@@H](C)C(=O)N[C@H](C(=O)N[C@H](C(=O)NCC(=O)N[C@@H](CCC(N)=O)C(=O)N[C@@H](C)C(=O)N[C@@H](C)C(=O)N[C@H](C(=O)N[C@H](C(=O)N[C@H](C(=O)N[C@@H](CCCCN)C(N)=O)C(C)C)C(C)C)[C@@H](C)O)C(C)C)C(C)C)C(C)C)[C@@H](C)CC the MIC was > 64 µM (KCCM 40203, Mueller-Hinton broth; 16 h, 37 °C; growth inhibition over 99%).
CCCCCCCC(=O)N[C@@H](CCCCN)C(=O)N[C@@H](CCCCN)C(=O)N[C@@H](C)C(=O)N[C@@H](C)C(=O)N[C@@H](CCCCN)C(=O)N[C@@H](C)C(=O)N[C@@H](C)C(=O)N[C@@H](CCCCN)C(=O)N[C@@H](CCCCN)C(=O)N1CCC[C@H]1C(=O)N[C@@H](C)C(=O)N[C@@H](CCCCN)C(=O)N[C@@H](C)C(=O)N[C@@H](C)C(=O)N[C@@H](CCCCN)C(N)=O has an MIC of > 80 µM (broth microdilution; ATCC 17978; 18 h, 37 °C, compound alone).
CNC(C)C1CCC(N)C(OC2C(N)CC(N)C(OC3OCC(C)(O)C(NC)C3O)C2O)O1 (stereo not drawn) gave an MIC of > 8 µg/mL (carbapenem-resistant clinical isolate).
CC[C@H](C)[C@H](NC(=O)CNC(=O)[C@H](CC(=O)O)NC(=O)[C@H](CCCNC(=N)N)NC(=O)[C@@H](NC(=O)[C@H](CC(N)=O)NC(=O)[C@H](CCCNC(=N)N)NC(=O)CNC(=O)[C@@H](NC(=O)[C@H](CCCCN)NC(=O)[C@H](CCC(=O)O)NC(=O)[C@@H](NC(=O)[C@H](CCCCN)NC(=O)[C@H](CCCCN)NC(=O)[C@H](Cc1ccccc1)NC(=O)[C@@H](NC(=O)[C@H](CCCCN)NC(=O)[C@H](Cc1c[nH]c2ccccc12)NC(=O)[C@@H](N)CCCNC(=N)N)[C@@H](C)CC)[C@@H](C)CC)C(C)C)C(C)C)C(=O)N[C@H](C(=O)N[C@@H](CCCCN)C(=O)N[C@@H](C)C(=O)NCC(=O)N1CCC[C@H]1C(=O)N[C@@H](C)C(=O)N[C@H](C(=O)N[C@@H](C)C(=O)N[C@H](C(=O)N[C@H](C(=O)NCC(=O)N[C@@H](CCC(N)=O)C(=O)N[C@@H](C)C(=O)N[C@@H](C)C(=O)N[C@H](C(=O)N[C@H](C(=O)N[C@H](C(=O)N[C@@H](CCC(=O)O)C(N)=O)C(C)C)C(C)C)[C@@H](C)O)C(C)C)C(C)C)C(C)C)[C@@H](C)CC gave an MIC of 2 µM (KCCM 40203, Mueller-Hinton broth; 16 h, 37 °C; growth inhibition over 99%).
The MIC of CC[C@H](C)[C@H](NC(=O)[C@H](CC(C)C)NC(=O)[C@H](CCCNC(=N)N)NC(=O)[C@@H](N)CCCNC(=N)N)C(=O)N[C@@H](CCCNC(=N)N)C(=O)N[C@@H](CCCCN)C(=O)N[C@@H](CC(C)C)C(=O)N[C@@H](CCCCN)C(=O)NCC(=O)N[C@@H](CC(C)C)C(=O)N[C@@H](CCCCN)C(=O)N[C@@H](CCCCN)C(=O)N[C@@H](Cc1ccc(O)cc1)C(=O)N[C@@H](CC(C)C)C(=O)N[C@@H](Cc1ccc(O)cc1)C(=O)N[C@@H](Cc1ccccc1)C(=O)N[C@@H](CCCCN)C(=O)N[C@@H](CC(C)C)C(=O)N[C@@H](CCC(N)=O)C(=O)N[C@@H](CC(C)C)C(=O)N[C@@H](CC(C)C)C(=O)N[C@@H](CCCCN)C(=O)N[C@@H](CCCCN)C(N)=O is reported as 2 µM (ATCC BAA1605, Mueller-Hinton broth; 24 h).
CC[C@@H](C)[C@@H](N)C(=O)N[C@@H](C(=O)N[C@H](Cc1ccc(O)cc1)C(=O)N[C@@H](C(=O)N[C@H](CCN)C(=O)N[C@H](CC(C)C)C(=O)N[C@H](CO)C(=O)N[C@H](CCN)C(=O)N[C@@H](C(=O)N[C@H](CCN)C(=O)N[C@H](Cc1c[nH]cn1)C(=O)N[C@H](CCN)C(=O)N[C@H](C)C(=O)N[C@H](CCN)C(=O)N[C@H](CCN)C(N)=O)[C@H](C)CC)[C@H](C)CC)[C@H](C)CC has an MIC of 4 µg/mL (broth microdilution; CDC 0274, Mueller-Hinton broth).

A few entries again:
CCCCCCCC(=O)N[C@@H](CCCCN)C(=O)N[C@@H](CCCCN)C(=O)N[C@@H](C)C(=O)N[C@@H](C)C(=O)N[C@@H](CCCCN)C(=O)N[C@@H](C)C(=O)N[C@@H](C)C(=O)N[C@@H](CCCCN)C(=O)N[C@@H](CCCCN)C(=O)N1CCC[C@H]1C(=O)N[C@@H](C)C(=O)N[C@@H](CCCCN)C(=O)N[C@@H](C)C(=O)N[C@@H](C)C(=O)N[C@@H](CCCCN)C(N)=O has an MIC of > 80 µM (broth microdilution; ATCC 17978; 18 h, 37 °C, compound alone).
The MIC of CC[C@H](C)[C@H](NC(=O)[C@H](CC(C)C)NC(=O)[C@H](CCCNC(=N)N)NC(=O)[C@@H](N)CCCNC(=N)N)C(=O)N[C@@H](CCCNC(=N)N)C(=O)N[C@H](C(=O)N[C@@H](CC(=O)O)C(=O)N[C@H](C(=O)NCC(=O)N1CCC[C@H]1C(=O)N[C@H](C(=O)N[C@H](C(=O)N[C@@H](Cc1ccc(O)cc1)C(=O)N[C@@H](CC(=O)O)C(=O)N[C@@H](Cc1ccc(O)cc1)C(=O)N[C@@H](Cc1ccccc1)C(=O)N[C@@H](CCCCN)C(=O)N[C@@H](CC(=O)O)C(=O)N[C@@H](CCC(N)=O)C(=O)N[C@@H](CC(C)C)C(=O)N[C@@H](CC(C)C)C(=O)N[C@@H](CCCCN)C(=O)N[C@@H](CCCCN)C(N)=O)[C@@H](C)CC)[C@@H](C)CC)[C@@H](C)O)[C@@H](C)O is reported as 128 µM (KCCM 40203, Mueller-Hinton broth; 24 h).
